Assay results of several laboratories.
Lines come from different studies, so protocols differ. Values joined by “and” are separate records of one study, mostly repeats; a detail may differ. Numbers after ± are the reported error.

`Cc1c(Cl)c(=O)oc2cc(OCCCCSC#N)ccc12` gave a GI50 of 19 ± 9 µM (WiDr, multidrug-resistant; sulforhodamine B).
With `Cc1nn(-c2nc3c(F)cc(F)cc3s2)c(O)c1C(c1cccc(C(F)(F)F)c1)c1c(C)nn(-c2nc3c(F)cc(F)cc3s2)c1O` the inhibition was -0.926% and -10.6% and -12.3% and -2.86% and -2.93% and -3.28% (THP1-Dual; IFN luciferase reporter; 2.5 µM, with: HT-DNA).
For `CCCCC[C@H](O)/C=C/[C@H]1C(=O)C[C@H](O)[C@@H]1C/C=C\CCCC(=O)O`, “HTRF cAMP signal” read 330 a.u. and 321 a.u. and 328 a.u. (HEK293-A2AR cells, SLCO2A1 knockout; HTRF cAMP; 500 µM).
For `C[C@H](Nc1ccc2c(c1)OCCn1cc(N3C(=O)OC[C@H]3C(F)F)nc1-2)C(N)=O`, “Hill coefficient GR curve” read 0.678 (BT-20; cell growth, CellTiter-Glo; 120 h).
With `Nc1cccc2c1CN(C1CCC(=O)NC1=O)C2=O` (centres unmarked) the viability was 98% (bone marrow CD138+ myeloma cells; XTT; 0.2 µM, mean of three patients).
For `O=c1[nH]nc(OCCCc2ccc(Cl)cc2)c(NCc2cccnc2)c1Br`, “normalized enrichment score” read -1.72 (HEK-293T; RNA-seq GSEA, measured: HALLMARK_INTERFERON_GAMMA_RESPONSE; concentration not given; direction not given).
`CC(C)C[C@H](NC(=O)CNC(=O)c1cc(Cl)ccc1Cl)B(O)O` gave an EC50 of 0.239 µM (BRD4-HiBiT cells; BRD4 degradation rescue, inhibitor; 2 h, with: dBET6 500 nM).
`Cn1cc(-c2ccc(-c3cncc(Cl)c3N3CCC4(CCNC4=O)CC3)cc2)cn1`: “log2 fold change” 2.1 (COLO 205; gene expression, microarray, measured: EFNA3 mRNA; concentration not given, 2 h; reference: untreated cells).
`CCCCc1nc(Cl)c(CO)n1Cc1ccc(-c2ccccc2-c2nn[nH]n2)cc1`: “log2 fold change” -1.62 (human PBMC; RNA-seq, measured: CD300LB mRNA; 10 µg/mL, 24 h; reference: untreated control).
The EC50 of `COc1cnc2cccc(N3CCc4c(cc(Cn5ccnc5C)cc4-c4cn(C)nc4C(F)(F)F)C3=O)c2c1` is reported as 14.8 µM (HCC1833; cell growth; 120 h).
For `CC(=O)Nc1cc(Oc2ccc3c(nc(Nc4ccc(F)cc4F)n3C)c2C)ccn1`, cell proliferation read “inhibited” (MHHCALL4 B-ALL cells; CellTiter-Glo; concentration not given, 3 d).
`NCCCOc1cc(NC(=O)c2cc(Cl)cc(C(=O)Nc3cc(OCCCN)c4ccccc4n3)n2)nc2ccccc12` gave a selectivity ratio of 1 (HT-1080; cell viability, CellTiter-Glo; 72 h; reference: IC50 HT-1080 over WI-38).
`COC[C@H](NC(=O)c1cnc(C)s1)C(=O)N[C@@H](COC)C(=O)N[C@@H](Cc1ccccc1)C(=O)[C@@]1(C)CO1` gave an EC50 of 0.0163 µM (BRD4-HiBiT cells; BRD4 degradation rescue, inhibitor; 24 h, with: dBET6 500 nM).
The IC50 of `CCCCN1C[C@H](O)[C@@H](O)[C@@H](O)[C@H]1CO` is reported as 4.5 µM (sample C patient fibroblasts; Gb3 level lowering, LC-MS/MS, measured: Gb3 d18:1/24:1; 216 h).
`CCc1ccc(NC(=O)Nc2c[nH]c3ccccc23)cc1` gave a phospho-TBK1/TBK1 ratio of 0.273 and 0.399 and 0.475 (THP1-Dual; TBK1 phosphorylation, inhibitor, Western blot densitometry; 20 µM, with: cGAMP).
With `C[C@H]1Oc2cc(cnc2N)-c2c(nn(C)c2C#N)CN(C)C(=O)c2ccc(F)cc21` the Emax was 99.8% (Ba/F3 EML4-ALK v1, no mutation; cell viability).
`C=CC(=O)N1CCC[C@@H](c2ccc(C(N)=O)c3[nH]ccc23)C1` gave a maximum inhibition of 18% (TMD8; calcium flux, FLIPR; 4 h preincubation, with: anti-IgM).
`Nc1cccc2c1C(=O)N(C1CCC(=O)NC1=O)C2=O` (centres unmarked) — result for “surface marker level”: 53.8% (RPMI-8226; flow cytometry, measured: CD118; concentration not given; reference: comparator compound alone).
`Cn1cc(Nc2nccc(-c3ccc4c(c3)CN(C3COC3)CC[C@H]4NC(=O)c3cn(C(C)(C)C)nn3)n2)cn1`: “number of upregulated genes” 266 (human B cells; 100 nM, 64 h, non-stimulation-regulated genes, with: CpG ODN2006).
For `CCn1cc(-c2cc(Cn3ccnc3)cc3c2CCN([C@H](c2cc(OC)ccn2)C2CC2)C3=O)c(C(F)(F)F)n1`, the EC50 was > 30 µM (KP3; cell growth; 120 h).
For `C#C[C@@]1(O)[C@@H](CO)O[C@@H](n2ccc3c(N)ncnc32)[C@@H]1O`, the TGI was 3.49 µM (MDA-MB-435; SRB; NCI-60 screen).
For `O=C(Nc1cc(OCCN2CCCC2)c2ccccc2n1)c1cc(OCc2ccc(F)cc2)cc(C(=O)Nc2cc(OCCN3CCCC3)c3ccccc3n2)n1`, the selectivity ratio was 1.3 (HT-1080; cell viability, CellTiter-Glo; 72 h; reference: IC50 HT-1080 over WI-38).
For `Clc1nc(NCc2ccco2)c2[nH]cnc2n1`, the ΔPSI was -0.202 (FD iPSC-derived cardiomyocytes; alternative splicing, RNA-seq, measured: ENOSF1 exon 697239-697355; unit not given; reference: DMSO minus compound).
Under “relative cell number”, `CCCCCCOC(=O)[C@]1(O)C[C@@H]2O[C@@]1(C)n1c3ccccc3c3c4c(c5c6ccccc6n2c5c31)C(=O)NC4` is recorded as 107% (SK-OV-3; ATP; 2D monolayer culture; 1 µM, 4 days; reference: untreated).
Under mRNA level, `N#C/C(=C\c1c[nH]nc1-c1cc(Br)cc(Br)c1)C(=O)O` is recorded as “decreased” (LX-2; qPCR, measured: ACTA2; 10 µM, hepatic stellate cell activation, with: TGFβ; reference: untreated).
The fold change of `C=Cc1c2[n-]c(c1C)/C=c1\[n-]/c(c(C)c1C=C)=C\c1[n-]c(c(CCC(=O)O)c1C)/C=c1\[n-]c(c(C)c1CCC(=O)O)=C2.[Sn+4]` is reported as 2.84 (SH-SY5Y; RNA-seq, measured: CD274 mRNA; 5 µM, 5 h; reference: untreated cells).
The AP-TGFα release of `CC(C)=CCNc1ncnc2c1ncn2[C@@H]1O[C@H](CO)[C@@H](O)[C@H]1O` is reported as 6.3% and 6.97% and 6.16% (mock-transfected cells; TGFα shedding, agonist; 10 µM; reference: unstimulated vehicle control).
`CCCC1=C(C(=O)OCC)C(c2ccc(Cl)cc2C)C2=C(CC(c3ccc(OC)c(OC)c3)OC2=O)N1` (centres unmarked) gave an EC50 of > 20 µM (J774.A1; cytotoxicity).
With `CCCCN1CCN(c2ccc3[nH]c(-c4ccc5[nH]c(-c6ccc(OCC)cc6)nc5c4)nc3c2)CC1` the growth percent was 55.1% (MDA-MB-435; SRB; 10 µM, 48 h).
`Nc1ncnc2[nH]cnc12` has a Z score of 1.73 (MDA-MB-231 BAX/BAK siRNA knockdown; cell viability, CellTiter-Glo; direction not given).
With `O=C(C[C@@H](C(F)F)n1ccc(F)n1)N1CCC(O)(Cn2cnc3c(cnn3-c3ccc(F)cc3)c2=O)CC1` the apoptotic cells was 10.7% (CHP-212 resistant; annexin V/PI flow cytometry; 0.3 µM, 48 h).
Under “log2 fold change”, `Cc1cc(Nc2ncc(Cl)c(Nc3ccccc3S(=O)(=O)C(C)C)n2)c(OC(C)C)cc1C1CCNCC1` is recorded as -2.36 (CLB-GE; phosphoproteomics LC-MS/MS, measured: RECQL4 phosphorylation; 200 nM, 60 min; reference: untreated).
`CCn1cc(-c2cc(Cn3ccoc3=N)cc3c2CCN([C@@H](C)c2cc(OC)ccn2)C3=O)c(C(F)(F)F)n1` gave an EC50 of 0.285 µM (MOLM-13; cell growth, inhibitor; 120 h).
`O=P(O)(O)C(O)(Cn1ccnc1)P(=O)(O)O` has a viability of 100 ± 1% (hFOB 1.19; AlamarBlue; 1.9 µM, 72 h; reference: control).
For `O=C(/C=C/C=C/C=C/C1CCCCC1)NC1=C[C@@](O)(/C=C/C=C/C=C/C(=O)NC2=C(O)CCC2=O)[C@@H]2O[C@@H]2C1=O`, the GI50 was 11.8 µM (rerflcms; cell growth, inhibitor, CellTiter-Glo luminescence; 78 h; reference: day 0 cell count).
`Cc1cnc(NC2CCOCC2)nc1-n1cnc(C(=O)NC(CN)c2cc(F)cc(Cl)c2)c1` (centres unmarked) — result for “G1 phase cells”: 58.1% (MINO; flow cytometry; 1 µM, 24 h).
For `C=CC(=O)N1CCC([C@@H]2CCNc3c(C(N)=O)c(-c4ccc(Oc5ccccc5)cc4)nn32)CC1`, the maximum inhibition was 62.3% (TMD8; calcium flux, FLIPR; 1 h preincubation, with: anti-IgM).
The log ratio of `CC/C(=N\NC(=O)NCc1cccc(O)c1)c1ccc(O)c(C)c1O` is reported as -3.8 (SK-OV-3; gene expression, microarray, measured: LAPTM5; 10 µM, 24 h; reference: DMSO).
`COc1ccc(NC(=S)N/N=C/c2cccc3cc4ccccc4nc23)cc1`: “early apoptotic cells” 10.6% (HeLa; annexin V/PI; concentration not given, 48 h, dosed at IC25).
`CC(C)C[C@@H](C=O)NC(=O)[C@H](CC(C)C)NC(=O)[C@H](CC(C)C)NC(=O)OCc1ccccc1` gave an EC50 of 0.356 µM (BRD4-HiBiT cells; BRD4 degradation rescue, inhibitor; 8 h, with: dBET6 500 nM).
The sarcomere length of `CC(C)NCC(O)c1ccc(O)c(O)c1` (centres unmarked) is reported as 1.77 µm (mouse ventricular cardiomyocytes; dose not given, 0.083 s).
For `Cc1nn(-c2nc3c(F)cc(F)cc3s2)c(O)c1C(c1ccccc1C(F)(F)F)c1c(C)nn(-c2nc3c(F)cc(F)cc3s2)c1O`, the inhibition was -10.3% and 11.6% and 12.7% and 10.5% and 10.3% (THP1-Dual; IFN luciferase reporter; 10 µM, with: HT-DNA).
`Nc1ncnc2c1ncn2[C@@H]1O[C@H](CO)[C@@H](O)[C@H]1O`: “log2 fold change” 0.8 and 0.761 (activated human T cells; measured: adenine; 30 µM; reference: DMSO).
With `CCN(CC)C(=O)N1CCN(C)CC1` the viability was 53.3% and 54.4% (MDA-MB-231 BAX/BAK siRNA knockdown; CellTiter-Glo; concentration not given; reference: normalised luminescence).
With `CCOC(=O)C1=C(C)NC2=C(C(=O)OC(c3ccc(Cl)c(OC)c3)C2)C1c1ccccc1Cl` (centres unmarked) the EC50 was > 20 µM (J774.A1; cytotoxicity).
For `Cl.FC(F)(F)Oc1ccc(Nc2ccc3ncc(OCC4CCNCC4)nc3c2)cc1`, mRNA level read “no effect” (MOLM-13; RT-qPCR, measured: Meis1, Myc; 0.3 and 1 µM, 3 days).
For `CCOC(=O)C1=C(C)NC2=C(C(=O)OC(c3ccccc3)C2)C1c1ccccc1Cl` (centres unmarked), the EC50 was > 20 µM (J774.A1; cytotoxicity).
`CC(C)(C)c1ccc(C(O)CCCN2CCC(C(O)(c3ccccc3)c3ccccc3)CC2)cc1` (centres unmarked) has a viability of 7.33% and 3.79% (MDA-MB-231 BAX/BAK siRNA knockdown; CellTiter-Glo; concentration not given; reference: normalised luminescence).
The EC50 of `CCOC(=O)C1=C(C)NC2=C(C(=O)OC(c3ccc(OC)c(OC)c3)C2)C1c1ccc(Br)cc1` (mixture of isomers) is reported as > 20 µM (J774.A1; cytotoxicity).
For `C[C@@H](O)[C@H](NC(=O)Nc1ncnc2c1ncn2[C@@H]1O[C@H](CO)[C@@H](O)[C@H]1O)C(=O)O`, the AP-TGFα release was 0% (mock-transfected cells; TGFα shedding, agonist; 10 nM; reference: unstimulated vehicle control).
The toxicity of `CC(=O)c1nn(-c2ccc(Cl)cc2)/c(=N/N=C(\C)c2ccc(NC(=O)c3ccc(C)cc3)cc2)s1` is reported as 78.4% (HepG2; 0.625 µM).
The EC50 of `CCOC(=O)C1=C(C)NC2=C(C(=O)OC(c3ccc(OC)cc3)C2)C1c1ccccc1Cl` (centres unmarked) is reported as > 20 µM (J774.A1; cytotoxicity).
With `Cn1c(Nc2nc3ccc(C(F)(F)F)cc3s2)nc2cc(C(=O)NCCOCCO)ccc21` the fold change was 2.23 (SH-SY5Y; RNA-seq, measured: PTX3 mRNA; 5 µM, 5 h; reference: untreated cells).
